Experimental data of several laboratories.
Organism: Staphylococcus aureus

CCCCCCCCCC(=O)N[C@@H](Cc1c[nH]c2ccccc12)C(=O)N[C@H](CC(N)=O)C(=O)N[C@@H](CC(=O)O)C(=O)N[C@@H]1C(=O)NCC(=O)N[C@@H](CCCN)C(=O)N[C@@H](CC(=O)O)C(=O)N[C@H](C)C(=O)N[C@@H](CC(=O)O)C(=O)NCC(=O)N[C@H](CO)C(=O)N[C@@H]([C@H](C)CC(=O)O)C(=O)N[C@@H](CC(=O)c2ccccc2N)C(=O)O[C@@H]1C
MIC (SH1000; added: sphingomyelin, molar ratio 0.5): 1 µg/mL

CC1(C)S[C@@H]2[C@H](NC(=O)[C@H](N)c3ccccc3)C(=O)N2[C@H]1C(=O)O
MIC (broth microdilution; MRSA, cation-adjusted Mueller-Hinton broth; 16 h, 37 °C): 128 µg/mL

O=C(Nc1nnc(Cl)s1)c1ccco1
MIC: > 128 µg/mL

CCC[C@@H]1C[C@@H](C(=O)N[C@@H]([C@H]2O[C@H](SC)[C@H](O)[C@@H](O)[C@H]2O)[C@@H](C)O)N(C)C1
MIC (broth microdilution; BNCC 186335): 4 µg/mL

Cc1[nH]c(C(=O)Nc2ccc(C(=O)NCc3n[nH]c(=O)o3)cc2N2CCN(C(=O)OC(C)(C)C)CC2)c(Cl)c1Cl
MIC (broth microdilution; ATCC 29213): 1 µg/mL

CC[C@@H](C)[C@H]1O[C@@H](c2c(O)c(-c3ccccc3)cn(O)c2=O)[C@H](C)C[C@@H]1C
MIC (ATCC 33591, MRSA): > 20 µg/mL

Cl.Oc1cccc2c1[nH]c1c(C3=CC4(O)CC/C=C\CCCCN5CCC3C3(CC6/C=C\CCCCN6C43)C5)nccc12 (single isomer, unassigned; (+))
MIC (growth; ATCC 43300 methicillin-resistant): 5 µg/mL

Cc1cc(C)c2c(=O)cc(C(=O)Nc3nc4ccc(F)cc4s3)oc2c1
MIC: > 128 µg/mL

O=[N+]([O-])c1ccc(O)c2ncccc12
MIC (broth microdilution; ATCC 43300 MRSA): 8 µg/mL

CN(C)[C@@H]1C(O)=C(C(N)=O)C(=O)[C@@]2(O)C(O)=C3C(=O)c4c(O)cccc4[C@@](C)(O)[C@H]3C[C@@H]12
MIC (138): 0.15 µM

CNC(=O)c1cc(Oc2ccc(NC(=O)Nc3ccc(Cl)c(C(F)(F)F)c3)cc2)ccn1
MIC (clinical isolate): 3 to 10 µM

CN[C@H](CC(C)C)C(=O)N[C@H]1C(=O)N[C@@H](CC(N)=O)C(=O)N[C@H]2C(=O)N[C@H]3C(=O)N[C@H](C(=O)N[C@H](C(=O)O)c4cc(O)cc(O)c4-c4cc3ccc4O)[C@H](O)c3ccc(c(Cl)c3)Oc3cc2cc(c3O[C@@H]2O[C@H](CO)[C@@H](O)[C@H](O)[C@H]2O[C@H]2C[C@](C)(N)[C@H](O)[C@H](C)O2)Oc2ccc(cc2Cl)[C@H]1O
MIC (ATCC 29213; 1 strain): 1 µg/mL

CC1CCN(CCCN2/C(=C/c3cc[n+](C)c4ccccc34)Sc3ccccc32)CC1.[I-]
MIC (broth microdilution; ATCC 29213): 2 µg/mL

C/C=C(\C)c1cc(O)c(C)c(OC(=O)c2c(C)c(Cl)c(O)c(Cl)c2O)c1
MIC (broth microdilution; 718306): 16 µg/mL

COc1ccc(-c2csc(NC(=O)c3ccc(C(=O)Nc4nc(-c5ccc(OC)c(OC)c5)cs4)s3)n2)cc1OC
MIC: > 32 µg/mL

CN[C@H](CC(C)C)C(=O)N[C@H]1C(=O)N[C@@H](CC(N)=O)C(=O)N[C@H]2C(=O)N[C@H]3C(=O)N[C@H](C(=O)N[C@H](C(=O)O)c4cc(O)cc(O)c4-c4cc3ccc4O)[C@H](O)c3ccc(c(Cl)c3)Oc3cc2cc(c3O[C@@H]2O[C@H](CO)[C@@H](O)[C@H](O)[C@H]2O[C@H]2C[C@](C)(N)[C@H](O)[C@H](C)O2)Oc2ccc(cc2Cl)[C@H]1O
MIC (USA300 MRSA; added: ZnSO4 0.3 mM): 1 µg/mL

NC[C@H]1O[C@H](O[C@H]2[C@H](O)[C@@H](O[C@H]3O[C@H](CO)[C@@H](O)[C@H](N)[C@H]3O)[C@H](N)C[C@@H]2N)[C@H](O)[C@@H](O)[C@@H]1O
MIC (broth microdilution; ATCC 29213): 3.43 µM

CN(C)c1ccc2nc3ccc(=[N+](C)C)cc-3sc2c1
MIC (ATCC 43300, resistant; 18 h, 37 °C, dark): 128 µM

CCn1cc(C(=O)O)c(=O)c2cc(F)c(N3CCNCC3)cc21
MIC (broth microdilution; ATCC 33591; 18 h): 1 µg/mL

CC[C@H](C)[C@H](NC(=O)[C@H](CCCCN)NC(=O)[C@H](CCC(=O)O)NC(=O)[C@H](CCCCN)NC(=O)[C@H](CO)NC(=O)[C@H](CCCCN)NC(=O)[C@H](CCCNC(=N)N)NC(=O)[C@H](Cc1ccccc1)NC(=O)[C@H](Cc1ccccc1)NC(=O)[C@H](CC(=O)O)NC(=O)CNC(=O)[C@H](CC(C)C)NC(=O)[C@@H](N)CC(C)C)C(=O)NCC(=O)N[C@@H](CCCCN)C(=O)N[C@@H](CCC(=O)O)C(=O)N[C@@H](Cc1ccccc1)C(=O)N[C@@H](CCCCN)C(=O)N[C@@H](CCCNC(=N)N)C(=O)N[C@H](C(=O)N[C@H](C(=O)N[C@@H](CCC(N)=O)C(=O)N[C@@H](CCCNC(=N)N)C(=O)N[C@H](C(=O)N[C@@H](CCCCN)C(=O)N[C@@H](CC(=O)O)C(=O)N[C@@H](Cc1ccccc1)C(=O)N[C@@H](CC(C)C)C(=O)N[C@@H](CCCNC(=N)N)C(=O)N[C@@H](CC(N)=O)C(=O)N[C@@H](CC(C)C)C(=O)N[C@H](C(=O)N1CCC[C@H]1C(=O)N[C@@H](CCCNC(=N)N)C(=O)N[C@H](C(=O)N[C@@H](CCC(=O)O)C(=O)N[C@@H](CO)C(=O)O)[C@@H](C)O)C(C)C)[C@@H](C)CC)C(C)C)[C@@H](C)CC
MIC (CMCC 26003; highest concentration 50 µM): 16.7 µM

Oc1c(Br)cc(Br)c2nc3c(F)cccc3nc12
MIC (broth microdilution; MRSA BAA-44): 0.78 µM

O=[N+]([O-])c1cnc2ccc(Cl)cc2c1O
MIC: > 128 µg/mL

NC[C@H]1O[C@H](O[C@H]2[C@H](O)[C@@H](O[C@H]3O[C@H](CO)[C@@H](O)[C@H](N)[C@H]3O)[C@H](N)C[C@@H]2N)[C@H](N)C[C@@H]1O
MIC (138): 12.5 µM

CC(=O)Oc1cc2c(s1)CCN(C(C(=O)C1CC1)c1ccccc1F)C2 (stereo not shown)
MIC (USA300 CA-MRSA; 20 h): > 128 µg/mL

CC[C@H](C)CCCCC(=O)N[C@@H](CCN)C(=O)N[C@H](C(=O)N[C@@H](CCN)C(=O)N[C@H]1CCNC(=O)[C@H]([C@@H](C)O)NC(=O)[C@H](CCN)NC(=O)[C@H](CCN)NC(=O)[C@H](CC(C)C)NC(=O)[C@@H](CC(C)C)NC(=O)[C@H](CCN)NC1=O)[C@@H](C)O
MIC (broth microdilution; MSSA ATCC 29213, cation-adjusted Mueller-Hinton broth; 20 to 24 h, 37 °C, 0.002% polysorbate 80): > 128 µg/mL

CC[C@H]1OC(=O)[C@H](C)[C@@H](O[C@H]2C[C@@](C)(OC)[C@@H](O)[C@H](C)O2)[C@H](C)[C@@H](O[C@@H]2O[C@H](C)C[C@H](N(C)C)[C@H]2O)[C@](C)(O)C[C@@H](C)C(=O)[C@H](C)[C@@H](O)[C@]1(C)O
MIC (129 MRSA clinical isolate): > 100 µM

Cc1nc(O)n2ncc(Br)c2n1
MIC: > 128 µg/mL

Cc1c2c(nn1C)CSCc1cc(n(C)n1)CSc1cc(c3ccccc3c1)OCCCc1c(C(=O)O)n(C)c3c-2c(Cl)ccc13
MIC (broth microdilution; MSSA SA113): 6.25 µM

CNC(C)C1CCC(N)C(OC2C(N)CC(N)C(OC3OCC(C)(O)C(NC)C3O)C2O)O1 (stereo not shown)
MIC (clinical isolate S.A02, RPMI with FBS; 24 h, 37 °C): 0.39 µM

CC(C)CCNc1nc(Cl)c2c(c1O)C(=O)C1=C(O)[C@]3(O)C(=O)C(C(N)=O)=C(O)[C@@H](N(C)C)[C@@H]3C[C@@H]1C2.Cl.Cl.Cl
MIC (broth microdilution CLSI; ATCC 29213): 0.5 µg/mL

COc1cccc(OC)c1C(=O)N[C@@H]1C(=O)N2[C@@H]1SC(C)(C)[C@@H]2C(=O)O
MIC (broth microdilution; BNCC 186335): 0.25 µg/mL

CN[C@H](CC(C)C)C(=O)N[C@H]1C(=O)N[C@@H](CC(N)=O)C(=O)N[C@H]2C(=O)N[C@H]3C(=O)N[C@H](C(=O)N[C@H](C(=O)O)c4cc(O)cc(O)c4-c4cc3ccc4O)[C@H](O)c3ccc(c(Cl)c3)Oc3cc2cc(c3O[C@@H]2O[C@H](CO)[C@@H](O)[C@H](O)[C@H]2O[C@H]2C[C@](C)(N)[C@H](O)[C@H](C)O2)Oc2ccc(cc2Cl)[C@H]1O
MIC (broth microdilution; MRSA NCTC 12493): 1 µM

CN[C@H](CC(C)C)C(=O)N[C@H]1C(=O)N[C@@H](CC(N)=O)C(=O)N[C@H]2C(=O)N[C@H]3C(=O)N[C@H](C(=O)N[C@H](C(=O)O)c4cc(O)cc(O)c4-c4cc3ccc4O)[C@H](O)c3ccc(c(Cl)c3)Oc3cc2cc(c3O[C@@H]2O[C@H](CO)[C@@H](O)[C@H](O)[C@H]2O[C@H]2C[C@](C)(N)[C@H](O)[C@H](C)O2)Oc2ccc(cc2Cl)[C@H]1O
MIC (broth microdilution; MRSA ATCC 33591, TGN medium): 8 µg/mL

CN(C)[C@@H]1C(O)=C(C(N)=O)C(=O)[C@@]2(O)C(O)=C3C(=O)c4c(O)cccc4[C@@](C)(O)[C@H]3C[C@@H]12
MIC (129 MRSA clinical isolate): 0.1 µM

CN(C)[C@@H]1C(O)=C(C(N)=O)C(=O)[C@@]2(O)C(O)=C3C(=O)c4c(O)c(N)nc(Cl)c4C[C@H]3C[C@@H]12
MIC (broth microdilution CLSI; ATCC 29213): 0.063 µg/mL

CC[C@H]1OC(=O)[C@H](C)[C@@H](O[C@H]2C[C@@](C)(OC)[C@@H](O)[C@H](C)O2)[C@H](C)[C@@H](O[C@@H]2O[C@H](C)C[C@H](N(C)C)[C@H]2O)[C@](C)(O)C[C@@H](C)C(=O)[C@H](C)[C@@H](O)[C@]1(C)O
MIC (MRSA 1): 100 µM

CO/N=C(\C(=O)N[C@@H]1C(=O)N2C(C(=O)O)=C(COC(C)=O)CS[C@H]12)c1csc(N)n1
MIC (broth microdilution; ATCC 33591; 18 h): 256 µg/mL

A few entries again:
O=C(Nc1nnc(Cl)s1)c1ccco1
MIC: > 128 µg/mL

CCC[C@@H]1C[C@@H](C(=O)N[C@@H]([C@H]2O[C@H](SC)[C@H](O)[C@@H](O)[C@H]2O)[C@@H](C)O)N(C)C1
MIC (broth microdilution; BNCC 186335): 4 µg/mL

Cc1[nH]c(C(=O)Nc2ccc(C(=O)NCc3n[nH]c(=O)o3)cc2N2CCN(C(=O)OC(C)(C)C)CC2)c(Cl)c1Cl
MIC (broth microdilution; ATCC 29213): 1 µg/mL

CC[C@@H](C)[C@H]1O[C@@H](c2c(O)c(-c3ccccc3)cn(O)c2=O)[C@H](C)C[C@@H]1C
MIC (ATCC 33591, MRSA): > 20 µg/mL

Cl.Oc1cccc2c1[nH]c1c(C3=CC4(O)CC/C=C\CCCCN5CCC3C3(CC6/C=C\CCCCN6C43)C5)nccc12 (single isomer, unassigned; (+))
MIC (growth; ATCC 43300 methicillin-resistant): 5 µg/mL
